Published values of several laboratories.
Protocols differ between the studies behind these lines. Numbers after ± are the reported error.

| Compound | target | assay | test system | conditions | scale | measurement | result |
| --- | --- | --- | --- | --- | --- | --- | --- |
| NC(=O)[C@H](CO)NC(=O)[C@@H]1CCCN1C(=O)[C@H](Cc1ccc(O)cc1)NC(=O)CNC(=O)[C@H](Cc1ccccc1)NC(=O)[C@@H](CCCN=C=S)NC(=O)[C@@H](N)Cc1ccc(O)cc1 | mu opioid receptor | radioligand binding | CHO cells | together with: 1 nM [3H]DAMGO |  | IC50 | 0.81 ± 0.29 nM |
| Cl.Cl.Cl.Cl.Cl.Cl.Cl.Cl.Cl.Cl.Cl.Cl.NC[C@@H]1O[C@H](O[C@H]2[C@@H](O)[C@H](O[C@@H]3[C@@H](O)[C@H](N)C[C@H](N)[C@H]3O[C@H]3O[C@H](CN)[C@@H](O)[C@H](O)[C@H]3N)O[C@@H]2Cn2cc(-c3ccc(-c4cn(C[C@H]5O[C@@H](O[C@@H]6[C@@H](O)[C@H](N)C[C@H](N)[C@H]6O[C@H]6O[C@H](CN)[C@@H](O)[C@H](O)[C@H]6N)[C@H](O)[C@@H]5O[C@H]5O[C@@H](CN)[C@@H](O)[C@H](O)[C@H]5N)nn4)cc3)nn2)[C@H](N)[C@@H](O)[C@@H]1O | HIV-1 TAR RNA | UV thermal denaturation |  | 1 molar equivalents to RNA, pH 6.8, TAR RNA 1 µM per strand | relative to: RNA alone, higher is more stabilization | ΔTm | 9.6 °C |
| NC(=O)[C@H](CO)NC(=O)[C@@H]1CCCN1C(=O)[C@H](Cc1ccc(O)cc1)NC(=O)CNC(=O)[C@H](Cc1ccccc1)NC(=O)[C@@H](CCCCN=C=S)NC(=O)[C@@H](N)Cc1ccc(O)cc1 | mu opioid receptor | radioligand binding | CHO cells | together with: 1 nM [3H]DAMGO |  | IC50 | 0.38 ± 0.08 nM |
| C[C@H](N)C(=O)N[C@@H](CO)C(=O)N[C@@H](C)C(=O)N[C@H]1CSC(=O)[C@H](Cc2ccccc2)NC(=O)[C@H](Cc2ccc(O)cc2)NC(=O)[C@H](C)NC(=O)[C@H](CO)NC1=O | AgrC-III | inhibitor, GFP reporter | Staphylococcus epidermidis, agr group-III reporter | 100 nM |  | AgrC-III activity | inhibited |
| O=C1c2cc(F)ccc2NC12CCCC2 | butyrylcholinesterase |  |  | 10 µM |  | remaining activity | 74 ± 2.95% |
| Cc1cc(C(=O)Nc2nc3cccc(C)c3n2[C@H]2CCCCN(C(=O)/C=C/CN(C)C)C2)ccn1 | Trypanosoma brucei CLK1 wild type | differential scanning fluorimetry |  |  |  | thermal shift | 12 °C |
| CCCCCCCC/C=C\CCCCCCCC(=O)Oc1cccc(SSC[C@H](N)C(=O)N[C@@H](Cc2ccc(O)cc2)C(=O)NCC(=O)N[C@@H](C)C(=O)N[C@@H](CCCCN)C(N)=O)c1 | rabbit mitochondrial calpain | enzyme activity | renal proximal tubule cells | 30 µM, 60 min |  | inhibition | ~40% |
| COC[C@@H](NC(C)=O)C(=O)NCc1ccc(OCc2ccccc2)cc1 | rat voltage-gated sodium channels | whole-cell patch clamp | rat embryonic cortical neurons | 10 µM |  | V1/2 of activation | -36.3 ± 4.9 mV |
| CC(=O)N[C@H]1CNC(=O)c2cc(cn2C)NC(=O)c2cc(cn2C)NC(=O)c2cc(cn2C)NC(=O)c2nc(cn2C)NC(=O)C[C@@H](N)CNC(=O)c2cc(cn2C)NC(=O)c2cc(cn2C)NC(=O)c2cc(cn2C)NC(=O)c2nc(cn2C)NC(=O)C1 | androgen response element DNA duplex | DNA binding |  | 2 µM, pH 7.0 |  | Tm | 81.2 °C |
| NC(=O)[C@H](CO)NC(=O)[C@@H]1CCCN1C(=O)[C@H](Cc1ccc(O)cc1)NC(=O)CNC(=O)[C@H](Cc1ccccc1)NC(=O)[C@@H](CCCNC(=O)CBr)NC(=O)[C@@H](N)Cc1ccc(O)cc1 | mu opioid receptor | radioligand binding |  |  | relative to: IC50 delta over IC50 mu | selectivity ratio | 3110 |
| O=C1c2ccccc2N(Cc2cccc(Cl)c2)C12CCCC2 | butyrylcholinesterase |  |  | 10 µM |  | remaining activity | 72.4 ± 9.17% |
| CC(=O)N[C@@H](CNC(=O)c1cc(NC(=O)c2cc(NC(=O)c3cc(NC(=O)c4nccn4C)cn3C)cn2C)cn1C)CC(=O)Nc1cn(C)c(C(=O)Nc2cc(C(=O)Nc3cc(C(=O)Nc4cc(C(=O)NCCCN(C)CCCNC(=O)c5cccc(C(=O)O)c5)n(C)c4)n(C)c3)n(C)c2)n1 | androgen response element DNA duplex | DNA binding |  | 2 µM, pH 7.0 | relative to: DNA alone | ΔTm | 16.1 °C |
| Cc1cc(Nc2nc(C[C@@]3(C(=O)O)CCN(Cc4cccc(Cl)c4F)[C@H](C)C3)cc(C)c2F)[nH]n1 | AURKA (Thr288 phosphorylation), mouse | AURKA phosphorylation, inhibitor, refers to: phospho-AURKA Thr288 | mouse, NCI-H446 xenograft, tumour | oral, 20 mg/kg single dose, 1 h |  | inhibition | 92.5% |
| Cl.Cl.Cl.Cl.Cl.Cl.Cl.Cl.Cl.Cl.Cl.Cl.NC[C@@H]1O[C@H](O[C@H]2[C@@H](O)[C@H](O[C@@H]3[C@@H](O)[C@H](N)C[C@H](N)[C@H]3O[C@H]3O[C@H](CN)[C@@H](O)[C@H](O)[C@H]3N)O[C@@H]2Cn2cc(COCCCCCCCCOCc3cn(C[C@H]4O[C@@H](O[C@@H]5[C@@H](O)[C@H](N)C[C@H](N)[C@H]5O[C@H]5O[C@H](CN)[C@@H](O)[C@H](O)[C@H]5N)[C@H](O)[C@@H]4O[C@H]4O[C@@H](CN)[C@@H](O)[C@H](O)[C@H]4N)nn3)nn2)[C@H](N)[C@@H](O)[C@@H]1O | HIV-1 TAR RNA | UV thermal denaturation |  | 1 molar equivalents to RNA, pH 6.8, TAR RNA 1 µM per strand |  | Tm | 74.3 °C |
| CC(C)C[C@H](NC(=O)[C@H](C)NC(=O)[C@H](CCCCN)NC(=O)[C@H](CCCNC(=N)N)NC(=O)[C@H](CCC(=O)O)NC(=O)[C@H](C)NC(=O)[C@H](CCC(=O)O)NC(=O)[C@H](CCCCN)NC(=O)[C@H](CCCCN)NC(=O)[C@H](CC(=O)O)NC(=O)[C@H](Cc1c[nH]cn1)NC(=O)[C@H](CC(=O)O)NC(=O)[C@H](Cc1c[nH]cn1)NC(=O)[C@H](CCCNC(=N)N)NC(=O)[C@H](CCC(=O)O)NC(=O)[C@H](CO)NC(=O)[C@H](CCCCN)NC(=O)[C@H](CC(C)C)NC(=O)[C@H](CCCNC(=N)N)NC(=O)[C@H](CCC(=O)O)NC(=O)[C@H](CC(C)C)NC(=O)[C@H](CCC(=O)O)NC(=O)[C@H](C)NC(=O)[C@H](CCC(=O)O)NC(=O)[C@H](CCC(=O)O)NC(=O)[C@H](Cc1c[nH]cn1)NC(=O)[C@H](CCCNC(=N)N)NC(=O)[C@H](CCC(=O)O)NC(=O)[C@H](CC(N)=O)NC(=O)[C@H](CCCCN)NC(=O)[C@H](CC(C)C)NC(=O)[C@H](CCCNC(=N)N)NC(=O)[C@H](CCC(N)=O)NC(=O)[C@H](CC(C)C)NC(=O)[C@H](CCC(=O)O)NC(=O)[C@H](C)NC(=O)[C@H](CC(=O)O)NC(=O)[C@H](C)NC(=O)[C@@H](NC(=O)[C@H](CC(C)C)NC(=O)[C@H](CCCCN)NC(=O)[C@H](CCC(=O)O)NC(=O)[C@@H](NC(=O)[C@H](CO)NC(=O)CN)C(C)C)[C@@H](C)O)C(=O)N[C@@H](CCC(=O)O)C(=O)N[C@@H](CC(=O)O)C(=O)N[C@@H](CCCCN)C(=O)N[C@@H](CC(C)C)C(=O)N[C@@H](C)C(=O)N[C@@H](CC(=O)O)C(=O)N[C@@H](Cc1ccc(O)cc1)C(=O)O | human plasminogen kringle 2 | hydrogen-deuterium exchange NMR, refers to: L26, K27, E29 amides |  | concentration not given, pH 6.8, 25 °C |  | amide exchange persistence time | > 20 h |
| [CH3][Ti+2][O]C(=O)c1ccc([S][Au][PH](c2ccccc2)(c2ccccc2)c2ccccc2)cc1.c1cc[cH-]c1.c1cc[cH-]c1 | thioredoxin reductase human | enzyme activity, inhibitor | CAKI-1 | 5 µM, 5 h |  | inhibition | 68.2% |

| Compound | target | assay | test system | conditions | scale | measurement | result |
| --- | --- | --- | --- | --- | --- | --- | --- |
| CC(=O)NCCCC[C@@H](NC(=O)[C@@H](N)Cc1ccc(O)cc1)C(=O)N[C@@H](Cc1ccccc1)C(=O)NCC(=O)N[C@@H](Cc1ccc(O)cc1)C(=O)N1CCC[C@H]1C(=O)N[C@@H](CO)C(N)=O | mu opioid receptor | radioligand binding | CHO cells | together with: 1 nM [3H]DAMGO |  | IC50 | 29.8 ± 7.6 nM |
| CCN(CCCCOc1ccc(CCC(=O)N2CCC(Cc3ccccc3)CC2)cc1OC)Cc1ccccc1 | butyrylcholinesterase | dilution reversibility |  | 0.1 × IC50, start of monitoring | relative to: uninhibited enzyme | remaining activity | 50.4% |
| O=C1c2ccccc2N(Cc2cccc(Br)c2)C12CCCC2 | butyrylcholinesterase |  |  | 10 µM |  | remaining activity | 69.3 ± 3.68% |
| CCCO[C@H]1[C@H](O)[C@@H](N)[C@@H](O[C@H]2[C@H](O[C@@H]3O[C@H](CO)[C@@H](O[C@H]4O[C@@H](CN)[C@@H](O)[C@H](O)[C@H]4N)[C@H]3O)[C@@H](O)[C@H](N)C[C@@H]2N)O[C@@H]1CO | rabbit reticulocyte ribosome | luciferase translation, cell-free translation | rabbit reticulocyte lysate |  |  | IC50 | 59.9 ± 30.1 µg/mL |
| Cl.Cl.Cl.Cl.Cl.Cl.Cl.Cl.Cl.Cl.Cl.Cl.NC[C@@H]1O[C@H](O[C@H]2[C@@H](O)[C@H](O[C@@H]3[C@@H](O)[C@H](N)C[C@H](N)[C@H]3O[C@H]3O[C@H](CN)[C@@H](O)[C@H](O)[C@H]3N)O[C@@H]2Cn2cc(CCCCCCc3cn(C[C@H]4O[C@@H](O[C@@H]5[C@@H](O)[C@H](N)C[C@H](N)[C@H]5O[C@H]5O[C@H](CN)[C@@H](O)[C@H](O)[C@H]5N)[C@H](O)[C@@H]4O[C@H]4O[C@@H](CN)[C@@H](O)[C@H](O)[C@H]4N)nn3)nn2)[C@H](N)[C@@H](O)[C@@H]1O | HIV-1 TAR RNA | UV thermal denaturation |  | 1 molar equivalents to RNA, pH 6.8, TAR RNA 1 µM per strand | relative to: RNA alone, higher is more stabilization | ΔTm | 6.1 °C |
| Cc1ccc(C(C)C)cc1.F[P-](F)(F)(F)(F)F.[Cl][Ru-]1[NH2+]CC[NH2+]1 | calf thymus DNA | thermal denaturation |  | 0.5 equivalents per DNA, 1 h, pH 7.39, 25 °C, 25 mM NaClO4 |  | delta Tm | -1.3 °C |
| O=C1c2cc(Br)ccc2NC12CCCC2 | butyrylcholinesterase |  |  | 10 µM |  | remaining activity | 76.3 ± 3.15% |
| C[C@H](NC(=O)[C@@H]1CCCN1C(=O)[C@H](Cc1ccc(O)cc1)NC(=O)CNC(=O)[C@H](CO)NC(=O)[C@H](Cc1ccccc1)NC(=O)[C@@H](N)[C@@H](C)O)C(=O)N[C@@H](Cc1ccccc1)C(=O)O | µ opioid receptor |  | rat supraoptic nucleus neurons, Sprague Dawley rat | 1 µM, held at -50 mV |  | outward current | 94 ± 13.1 pA |
| CC(=O)Nc1ccc2ccn(-c3cc(NS(C)(=O)=O)n4ncc(C#N)c4n3)c2c1 | CSNK2A1 and CSNK2A2, human | inactive, NanoBRET |  | 10 µM |  | activity | inactive |
| CCC(=O)C[C@@H](O)C[C@@H](C)C[C@H](NC(=O)[C@@H]1C[C@H](C)CN1C(=O)/C=C/[C@@H](C)CC)C(=O)N[C@H](C(=O)NC(C)(C)C(=O)N[C@@H](CC(C)C)C(=O)N[C@@H](CC(C)C)C(=O)NC(C)(C)C(=O)NC(C)(C)C(=O)NCCC(=O)N[C@@H](C)CNC)[C@H](O)C(C)C | mTORC1 | inhibitor, immunoblot | MDA-MB-453 | 100 nM, 2 h |  | phospho-S6K level | inhibited |
| CC(=O)N[C@H]1CNC(=O)c2cc(cn2C)NC(=O)c2cc(cn2C)NC(=O)c2cc(cn2C)NC(=O)c2nc(cn2C)NC(=O)C[C@@H](NC(C)=O)CNC(=O)c2cc(cn2C)NC(=O)c2cc(cn2C)NC(=O)c2cc(cn2C)NC(=O)c2nc(cn2C)NC(=O)C1 | androgen response element DNA duplex | DNA binding |  | 2 µM, pH 7.0 | relative to: DNA alone | ΔTm | 22.1 °C |
| CC(=NNC(N)=S)c1ccc2ccccc2c1.CC(=NNC(N)=S)c1ccc2ccccc2c1.[Cl][Co][Cl] | calf thymus DNA | fluorescence competition |  | together with: ethidium bromide |  | apparent binding constant | 3980 M⁻¹ |
| CC(C)C[C@@H]1NC(=O)[C@H](CCCNC(=N)N)NC(=O)[C@H](CCCCN)NC(=O)[C@H](CC(=O)O)NC(=O)[C@H](CCCCN)NC(=O)[C@@H](CO)NC1=O | MMP-14, human |  | PANC-1 ADAM8-expressing | 1 µM, 24 h | relative to: vehicle | enzyme activity | decreased |
| N=C(N)NCCC[C@H](N)C(=O)N1CCC[C@H]1C(=O)N[C@@H](CCCCN)C(=O)N1CCC[C@H]1C(=O)N[C@@H](CCC(N)=O)C(=O)N[C@@H](CCC(N)=O)C(=O)N[C@@H](Cc1ccccc1)C(=O)N[C@@H](Cc1ccccc1)C(=O)NCC(N)=O | MRGPRX2, human | Ca2+ mobilization, agonist, Fura-2 | LAD2 IgE-sensitized | 37 °C |  | EC50 | 3500 nM |
| Nc1c2c([n+](CCCCCCCCCC[n+]3c4c(c(N)c5ccccc53)CCC4)c3ccccc13)CCC2 | SIVmac251.30 Env | inhibitor |  | concentration not given, low Env expression |  | cell-cell fusion | inhibited |
